Values quoted from earlier work, collected from citations in different studies.
Lines come from different studies, so protocols differ. ± gives the spread as reported.

SMILES	test	system	conditions	scale	measurement	value
OC(Cn1cncn1)(Cn1cncn1)c1ccc(F)cc1F	–	plasma	concentration not given	–	Cmax	21.9 µM
Cc1nc2cccc(OCC(C)(C)C(=O)NC(C)C)c2c(N)c1C(=O)O.Cc1nc2cccc(OCC(C)(C)C(=O)NC(C)C)c2c(N)c1C(=O)O.O.O.O=S(=O)(O)O	–	rat, male, plasma	oral gavage, 30 mg/kg, molecular weight corrected	relative to: parent drug	AUC(0-t)	136%
C[C@H]1c2cccc(O)c2C(=O)C2=C(O)[C@]3(O)C(=O)C(C(N)=O)=C(O)[C@@H](N(C)C)[C@@H]3[C@@H](O)[C@@H]21	–	octanol-water	–	–	logP	-0.02
O=C1c2cccc3c2[C@H](CCC3)CN1[C@@H]1CN2CCC1CC2	–	patients, plasma	oral, dose not given, netupitant-palonosetron combination, added: docetaxel 75 to 100 mg/m^2 IV	–	Vz/F	633 L
CN(C)C(=O)c1cc2cnc(Nc3ccc(N4CCNCC4)cn3)nc2n1C1CCCC1	–	recurrent brain tumour patients, MRI-non-enhancing tumour	900 mg/day, 5 days	–	unbound concentration	0.46 ± 0.24 nmol/g
O=C1CC(c2ccc(O)cc2)Oc2cc(O)cc(O)c21 (stereo not shown)	–	Wistar rat, female	oral gavage, 50 mg/kg/day, 4 weeks	–	serum AST, ALT, LDH, CK, protein, albumin	no effect
Cc1ccc(NC(=O)c2ccc(CN3CCN(C)CC3)cc2)cc1Nc1nccc(-c2cccnc2)n1	–	patients, plasma	dose not given, total concentration	–	Cmax	5.11 µM
C=C[C@@H]1C[C@]1(NC(=O)[C@@H]1C[C@@H](Oc2nccc3cc(OC)ccc23)CN1C(=O)[C@@H](NC(=O)OC(C)(C)C)C(C)(C)C)C(=O)NS(=O)(=O)C1CC1	–	rabbit, heart	dose not given, 60 min after infusion	–	tissue concentration	0.25 µM
Nc1c(Br)cc(Br)cc1CN[C@H]1CC[C@H](O)CC1	–	plasma	concentration not given	–	Cmax	0.48 µM
Nc1ccn([C@@H]2CS[C@H](CO)O2)c(=O)n1	–	Japanese HIV-infected patients	oral, 300 mg single dose, fasted, added: abacavir 600 mg	–	AUC(0-t)	16300 ng·h/mL
OCCOCCN1CCN(C(c2ccccc2)c2ccc(Cl)cc2)CC1 (stereo not shown)	–	rat	added: cyclosporin A	–	log brain permeability-surface product	-1.41 mL/g/s
Cc1ccc(Nc2nccc(N(C)c3ccc4c(C)n(C)nc4c3)n2)cc1S(N)(=O)=O	–	patients	dose not given, all grades	–	patients with neutropenia	34%
CNCc1ccc(-c2[nH]c3cc(F)cc4c3c2CCNC4=O)cc1	–	patients	600 mg twice daily, grade 3 or higher, single agent	–	patients with ALT or AST increase	11%
CC[C@H](C)CCCCC(=O)N[C@@H](CCN)C(=O)N[C@H](C(=O)N[C@@H](CCN)C(=O)N[C@H]1CCNC(=O)[C@H]([C@@H](C)O)NC(=O)[C@H](CCN)NC(=O)[C@H](CCN)NC(=O)[C@H](CC(C)C)NC(=O)[C@@H](Cc2ccccc2)NC(=O)[C@H](CCN)NC1=O)[C@@H](C)O	–	human patients with renal insufficiency	intravenous, dose not given, population PK model	–	peripheral volume of distribution	10.6 L
Cc1c(C)c2c(c(C)c1O)CCC(C)(COc1ccc(CC3SC(=O)NC3=O)cc1)O2 (stereo not shown)	–	plasma	concentration not given	–	Cmax	6.6 µM
CNCCC(Oc1ccc(C(F)(F)F)cc1)c1ccccc1 (stereo not shown)	–	juvenile Chinook salmon, whole body wet weight	concentration not given, field-collected	–	maximum whole-body concentration	4.9 ng/g
CO[C@H]1/C=C/O[C@@]2(C)Oc3c(C)c(O)c4c(O)c(c(/C=N/N5CCN(C)CC5)c(O)c4c3C2=O)NC(=O)/C(C)=C\C=C\[C@H](C)[C@H](O)[C@@H](C)[C@@H](O)[C@@H](C)[C@H](OC(C)=O)[C@@H]1C	–	–	–	–	logP	2.7
Cc1ccccc1-c1cc(N2CCN(C)CC2)ncc1N(C)C(=O)C(C)(C)c1cc(C(F)(F)F)cc(C(F)(F)F)c1	–	patients, plasma	oral, dose not given, netupitant-palonosetron combination, added: docetaxel 75 to 100 mg/m^2 IV	–	half-life	93.8 h
CC[C@H](C)[C@H](NC(=O)[C@H](CCCCN)NC(=O)[C@H](CCCCN)NC(=O)[C@H](Cc1ccccc1)NC(=O)[C@H](CC(C)C)NC(=O)[C@H](CCCCN)NC(=O)[C@@H](N)CCCCN)C(=O)N[C@@H](CC(C)C)C(=O)N[C@@H](CCCCN)C(=O)N[C@@H](Cc1ccccc1)C(=O)N[C@@H](CC(C)C)C(N)=O	–	horse erythrocytes 5 % v/v	150 µM	–	hemolysis	34 ± 2.1%

SMILES	test	system	conditions	scale	measurement	value
COc1cccc(-c2c(C)n(Cc3c(F)cccc3C(F)(F)F)c(=O)n(C[C@H](NCCCC(=O)O)c3ccccc3)c2=O)c1F	–	human	150 mg single dose, rifampin day 1, mean observed, added: rifampin 600 mg once daily	relative to: with over without rifampin	AUC(0-24) ratio	5.58
CC1=C(CC(=O)O)c2cc(F)ccc2/C1=C\c1ccc([S+](C)[O-])cc1 (stereo not shown)	–	plasma	concentration not given	–	Cmax	19 µM
C#Cc1cccc(Nc2ncnc3cc(OCCOC)c(OCCOC)cc23)c1	–	human	oral, 150 mg once daily, day 28, 24 h	–	AUC(0-t)	43800 ± 22600 ng·h/mL
CC[C@@H](C)[C@@H](NC(=O)[C@@H](CCCCN)NC(=O)[C@@H](CCCCN)NC(=O)[C@@H](Cc1ccccc1)NC(=O)[C@@H](CC(C)C)NC(=O)[C@@H](CCCCN)NC(=O)[C@H](N)CCCCN)C(=O)N[C@@H](CC(C)C)C(=O)N[C@@H](CCCCN)C(=O)N[C@@H](Cc1ccc(O)cc1)C(=O)N[C@@H](CC(C)C)C(N)=O	–	horse erythrocytes 5 % v/v	150 µM	–	hemolysis	1 ± 0.5%
CO[C@H]1C[C@@H]2CC[C@@H](C)[C@@](O)(O2)C(=O)C(=O)N2CCCC[C@H]2C(=O)O[C@H]([C@H](C)C[C@@H]2CC[C@@H](O)[C@H](OC)C2)CC(=O)[C@H](C)/C=C(\C)[C@@H](O)[C@@H](OC)C(=O)[C@H](C)C[C@H](C)/C=C/C=C/C=C/1C	population PK model	paediatric neurofibromatosis patients	dose not given	–	volume of distribution	12 ± 5 L/kg
O=C(O)CNC(=O)c1ccccc1[131I]	–	normal rat, kidney	60 min, added: co-injected 99mTc-1	–	percent injected dose	0.5 %ID
O=C(/C=C/C=C/c1ccc2c(c1)OCO2)N1CCCCC1	nevirapine elimination rate, refers to: nevirapine	human	20 mg, added: nevirapine 200 mg	–	inhibition	no inhibition
CCCCN1CCCCC1C(=O)Nc1c(C)cccc1C (stereo not shown)	–	plasma	concentration not given	–	Cmax	0.7 µM
CC(C)NCC1CCc2cc(CO)c([N+](=O)[O-])cc2N1 (stereo not shown)	–	healthy human	oral, 1000 mg	–	half-life	1.85 ± 0.233 h
O=C(O)c1ccccc1Nc1cccc(C(F)(F)F)c1	–	plasma	concentration not given	–	Cmax	46 µM
CN[C@H]1C(=O)N[C@@H]2Cc3ccc(cc3)Oc3cc4cc(c3O[C@@H]3O[C@H](C(=O)O)[C@@H](O)[C@H](O)[C@H]3NC(=O)CCCCCCCCC(C)C)Oc3ccc(cc3Cl)[C@@H](O)[C@@H]3NC(=O)[C@H](NC(=O)[C@@H]4NC(=O)[C@@H](NC2=O)c2cc(cc(O)c2Cl)Oc2cc1ccc2O)c1ccc(O)c(c1)-c1c(O[C@H]2O[C@H](CO)[C@@H](O)[C@H](O)[C@@H]2O)cc(O)cc1[C@@H](C(=O)NCCCN(C)C)NC3=O	–	human, plasma	dose not given	–	unbound fraction	~7%
COc1cccc(CCc2ccccc2OC[C@H](O)CN(C)C)c1 (racemic)	–	human	oral, 100 mg sarpogrelate hydrochloride, single dose, geometric mean	–	AUC	86.2 ng·h/mL
CCn1c(=O)c2c(nc(/C=C/c3ccc(OC)c(OC)c3)n2C)n(CC)c1=O	–	plasma	oral, concentration not given, 2 h	–	unchanged drug share of plasma radioactivity	~80%
CN[C@H]1CC[C@@H](c2ccc(Cl)c(Cl)c2)c2ccccc21	–	human	–	relative to: patients over 65 years over younger	mean concentration ratio	1.3 fold
CNC(=O)c1cc(Oc2ccc(NC(=O)Nc3ccc(Cl)c(C(F)(F)F)c3)cc2)ccn1	–	renal cell carcinoma patients	dose not given, 16 months post-crossover, phase III	relative to: patients	cardiac ischaemia or infarction events	4.9%
Nc1nc(NC2CC2)c2ncn([C@H]3C=C[C@@H](CO)C3)c2n1	–	healthy, mostly White or Black	600 mg, single dose, fasted, added: dolutegravir 50 mg, lamivudine 300 mg	–	median Tmax	2 h
Cc1nc(-c2ccc(OCC(C)C)c(C#N)c2)sc1C(=O)O	–	healthy subjects and patients	added: food	–	absorption rate constant reduction	87%
CC[C@H](C)[C@H](NC(=O)[C@H](C)NC(=O)CNC(=O)[C@@H](N)CCCCN)C(=O)N[C@H](C(=O)NCC(=O)N[C@@H](CC(C)C)C(=O)N[C@@H](CCSC)C(=O)N[C@H](C(=O)NCC(=O)NCC(=O)N[C@H](C(=O)N[C@H](C(=O)N[C@H](C(=O)N[C@@H](C)C(=O)O)[C@@H](C)CC)C(C)C)C(C)C)C(C)C)[C@@H](C)CC	filtration	sodium phosphate buffer	pH 7.4	–	solubility	~1 µM

Some of these lines once more:
SMILES	test	system	conditions	scale	measurement	value
OC(Cn1cncn1)(Cn1cncn1)c1ccc(F)cc1F	–	plasma	concentration not given	–	Cmax	21.9 µM
Cc1ccc(NC(=O)c2ccc(CN3CCN(C)CC3)cc2)cc1Nc1nccc(-c2cccnc2)n1	–	patients, plasma	dose not given, total concentration	–	Cmax	5.11 µM
CC1=C(CC(=O)O)c2cc(F)ccc2/C1=C\c1ccc([S+](C)[O-])cc1 (stereo not shown)	–	plasma	concentration not given	–	Cmax	19 µM
CN[C@H]1CC[C@@H](c2ccc(Cl)c(Cl)c2)c2ccccc21	–	human	–	relative to: patients over 65 years over younger	mean concentration ratio	1.3 fold
COc1cccc(CCc2ccccc2OC[C@H](O)CN(C)C)c1 (racemic)	–	human	oral, 100 mg sarpogrelate hydrochloride, single dose, geometric mean	–	AUC	86.2 ng·h/mL
